Results collected from several papers.
Numbered parts are unrelated; each lists some results of a single study.
Chain of UniProt Q96NX5 (whole entry, looked up): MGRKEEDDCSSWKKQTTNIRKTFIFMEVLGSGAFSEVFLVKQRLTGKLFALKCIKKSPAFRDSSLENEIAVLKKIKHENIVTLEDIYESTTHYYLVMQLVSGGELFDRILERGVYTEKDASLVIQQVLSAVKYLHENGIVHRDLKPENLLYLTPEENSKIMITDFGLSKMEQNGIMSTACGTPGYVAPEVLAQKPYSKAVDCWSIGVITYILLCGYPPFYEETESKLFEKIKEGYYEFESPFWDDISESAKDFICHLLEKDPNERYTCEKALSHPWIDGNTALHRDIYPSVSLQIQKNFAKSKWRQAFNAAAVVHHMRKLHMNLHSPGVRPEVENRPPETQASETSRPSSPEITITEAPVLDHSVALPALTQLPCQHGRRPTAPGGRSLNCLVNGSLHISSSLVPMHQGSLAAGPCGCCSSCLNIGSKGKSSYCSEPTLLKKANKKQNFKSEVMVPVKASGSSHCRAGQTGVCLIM
Chain of UniProt Q9NR20 (whole entry, looked up): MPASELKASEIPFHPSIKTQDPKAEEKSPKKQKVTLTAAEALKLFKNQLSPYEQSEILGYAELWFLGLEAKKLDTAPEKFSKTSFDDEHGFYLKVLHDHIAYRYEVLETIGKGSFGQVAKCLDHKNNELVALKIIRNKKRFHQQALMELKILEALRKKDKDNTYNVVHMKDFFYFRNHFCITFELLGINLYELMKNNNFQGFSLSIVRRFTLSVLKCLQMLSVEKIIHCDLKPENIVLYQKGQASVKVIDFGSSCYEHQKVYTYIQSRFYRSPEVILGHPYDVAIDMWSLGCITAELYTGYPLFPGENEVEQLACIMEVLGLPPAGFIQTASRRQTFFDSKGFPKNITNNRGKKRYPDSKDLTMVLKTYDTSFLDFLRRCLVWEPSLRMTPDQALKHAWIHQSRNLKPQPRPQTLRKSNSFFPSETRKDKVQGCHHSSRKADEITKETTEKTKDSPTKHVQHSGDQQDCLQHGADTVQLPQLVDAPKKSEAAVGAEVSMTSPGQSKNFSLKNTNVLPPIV
Chain of UniProt O75116 (whole entry, looked up): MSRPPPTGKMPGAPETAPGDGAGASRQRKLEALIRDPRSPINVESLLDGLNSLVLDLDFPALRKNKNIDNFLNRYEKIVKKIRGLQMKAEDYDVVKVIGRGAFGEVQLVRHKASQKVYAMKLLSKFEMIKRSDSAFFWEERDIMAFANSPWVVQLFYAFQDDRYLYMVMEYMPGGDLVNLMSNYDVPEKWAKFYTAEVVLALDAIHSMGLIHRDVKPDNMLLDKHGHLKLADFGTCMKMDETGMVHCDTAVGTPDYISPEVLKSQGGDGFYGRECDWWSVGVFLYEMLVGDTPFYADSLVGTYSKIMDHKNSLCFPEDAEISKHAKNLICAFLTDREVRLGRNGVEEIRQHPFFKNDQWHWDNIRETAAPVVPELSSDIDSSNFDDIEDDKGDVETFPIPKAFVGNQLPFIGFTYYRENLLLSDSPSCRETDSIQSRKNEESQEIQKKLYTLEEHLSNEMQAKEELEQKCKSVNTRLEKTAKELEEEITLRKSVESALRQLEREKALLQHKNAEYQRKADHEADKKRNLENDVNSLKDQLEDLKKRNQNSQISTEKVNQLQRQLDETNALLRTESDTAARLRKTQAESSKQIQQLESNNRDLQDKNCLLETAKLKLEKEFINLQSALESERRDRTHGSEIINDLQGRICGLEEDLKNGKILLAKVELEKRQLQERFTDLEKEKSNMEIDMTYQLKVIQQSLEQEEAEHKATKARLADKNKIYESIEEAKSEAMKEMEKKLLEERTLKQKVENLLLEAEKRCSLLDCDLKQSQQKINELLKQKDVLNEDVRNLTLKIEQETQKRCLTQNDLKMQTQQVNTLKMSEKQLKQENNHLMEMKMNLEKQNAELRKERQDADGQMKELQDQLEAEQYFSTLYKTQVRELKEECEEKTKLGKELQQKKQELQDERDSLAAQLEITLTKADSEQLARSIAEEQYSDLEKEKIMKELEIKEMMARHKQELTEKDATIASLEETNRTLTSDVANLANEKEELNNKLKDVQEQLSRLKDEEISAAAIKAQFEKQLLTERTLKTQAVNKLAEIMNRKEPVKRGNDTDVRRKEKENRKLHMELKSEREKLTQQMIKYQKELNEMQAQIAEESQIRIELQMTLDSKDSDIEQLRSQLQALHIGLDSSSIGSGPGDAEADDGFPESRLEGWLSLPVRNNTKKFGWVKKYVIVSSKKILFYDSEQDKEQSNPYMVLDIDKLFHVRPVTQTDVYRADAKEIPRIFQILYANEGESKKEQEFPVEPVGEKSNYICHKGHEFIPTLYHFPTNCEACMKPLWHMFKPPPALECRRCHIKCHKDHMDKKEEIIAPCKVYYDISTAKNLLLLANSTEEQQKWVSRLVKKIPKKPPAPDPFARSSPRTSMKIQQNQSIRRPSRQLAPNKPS
Chain of UniProt P49674 (whole entry, looked up): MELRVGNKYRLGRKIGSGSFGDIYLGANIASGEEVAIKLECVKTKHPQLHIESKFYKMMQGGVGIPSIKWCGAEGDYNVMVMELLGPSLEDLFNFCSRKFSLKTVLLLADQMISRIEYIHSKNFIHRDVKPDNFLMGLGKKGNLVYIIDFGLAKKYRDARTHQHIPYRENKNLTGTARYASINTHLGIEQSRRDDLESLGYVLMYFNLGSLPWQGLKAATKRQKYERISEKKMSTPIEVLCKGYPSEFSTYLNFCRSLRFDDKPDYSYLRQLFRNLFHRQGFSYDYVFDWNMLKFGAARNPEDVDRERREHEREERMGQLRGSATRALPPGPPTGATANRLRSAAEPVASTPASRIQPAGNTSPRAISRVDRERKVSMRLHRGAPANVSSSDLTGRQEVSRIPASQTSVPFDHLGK
Chain of UniProt Q15139 (whole entry, looked up): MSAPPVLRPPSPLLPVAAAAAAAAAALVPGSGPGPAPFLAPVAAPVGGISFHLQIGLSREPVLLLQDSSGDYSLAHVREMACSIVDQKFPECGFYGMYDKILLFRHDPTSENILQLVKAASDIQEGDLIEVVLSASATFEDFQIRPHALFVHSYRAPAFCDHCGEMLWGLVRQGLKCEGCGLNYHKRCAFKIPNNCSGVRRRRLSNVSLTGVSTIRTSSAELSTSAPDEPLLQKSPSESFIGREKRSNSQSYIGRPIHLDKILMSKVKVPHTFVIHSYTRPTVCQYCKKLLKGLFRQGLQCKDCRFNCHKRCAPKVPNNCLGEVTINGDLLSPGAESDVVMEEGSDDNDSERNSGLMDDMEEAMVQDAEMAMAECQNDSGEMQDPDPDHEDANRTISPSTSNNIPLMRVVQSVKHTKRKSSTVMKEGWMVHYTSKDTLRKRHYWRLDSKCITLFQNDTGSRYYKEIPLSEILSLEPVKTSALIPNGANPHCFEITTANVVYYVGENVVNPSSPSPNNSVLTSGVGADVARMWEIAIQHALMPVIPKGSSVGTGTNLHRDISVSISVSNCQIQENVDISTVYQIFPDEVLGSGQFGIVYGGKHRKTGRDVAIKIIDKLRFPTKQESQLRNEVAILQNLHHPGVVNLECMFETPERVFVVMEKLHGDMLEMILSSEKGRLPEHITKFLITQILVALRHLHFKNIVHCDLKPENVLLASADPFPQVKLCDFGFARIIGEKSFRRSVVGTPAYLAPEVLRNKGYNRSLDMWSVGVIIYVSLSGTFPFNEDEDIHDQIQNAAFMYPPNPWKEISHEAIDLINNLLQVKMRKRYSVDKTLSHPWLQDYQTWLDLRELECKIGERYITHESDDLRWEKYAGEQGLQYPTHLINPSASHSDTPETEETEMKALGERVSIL
Chain of UniProt Q6P2M8 (whole entry, looked up): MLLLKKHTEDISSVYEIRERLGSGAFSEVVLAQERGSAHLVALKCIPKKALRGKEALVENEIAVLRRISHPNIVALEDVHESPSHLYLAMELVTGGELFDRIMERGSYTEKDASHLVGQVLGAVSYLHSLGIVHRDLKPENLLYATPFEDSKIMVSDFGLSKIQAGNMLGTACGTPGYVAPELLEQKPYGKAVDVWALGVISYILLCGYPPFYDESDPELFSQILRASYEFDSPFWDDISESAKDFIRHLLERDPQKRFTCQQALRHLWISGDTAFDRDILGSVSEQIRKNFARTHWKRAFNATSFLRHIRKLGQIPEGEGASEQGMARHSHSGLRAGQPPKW
Chain of UniProt P50613 (whole entry, looked up): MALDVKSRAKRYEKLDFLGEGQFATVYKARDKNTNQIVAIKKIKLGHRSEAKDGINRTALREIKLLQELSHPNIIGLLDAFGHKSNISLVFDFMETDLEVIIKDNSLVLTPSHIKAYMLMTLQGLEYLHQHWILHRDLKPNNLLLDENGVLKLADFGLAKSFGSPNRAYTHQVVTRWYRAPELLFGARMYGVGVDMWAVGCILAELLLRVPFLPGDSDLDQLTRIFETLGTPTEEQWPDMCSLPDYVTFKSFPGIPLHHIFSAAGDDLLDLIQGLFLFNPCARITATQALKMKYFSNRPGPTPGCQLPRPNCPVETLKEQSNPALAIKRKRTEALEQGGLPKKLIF

Sample 1
Target: Ras GTPase-activating protein-binding protein 1, full length (G3BP1, Homo sapiens, UniProt Q13283)
Chain of UniProt Q13283 (whole entry, looked up): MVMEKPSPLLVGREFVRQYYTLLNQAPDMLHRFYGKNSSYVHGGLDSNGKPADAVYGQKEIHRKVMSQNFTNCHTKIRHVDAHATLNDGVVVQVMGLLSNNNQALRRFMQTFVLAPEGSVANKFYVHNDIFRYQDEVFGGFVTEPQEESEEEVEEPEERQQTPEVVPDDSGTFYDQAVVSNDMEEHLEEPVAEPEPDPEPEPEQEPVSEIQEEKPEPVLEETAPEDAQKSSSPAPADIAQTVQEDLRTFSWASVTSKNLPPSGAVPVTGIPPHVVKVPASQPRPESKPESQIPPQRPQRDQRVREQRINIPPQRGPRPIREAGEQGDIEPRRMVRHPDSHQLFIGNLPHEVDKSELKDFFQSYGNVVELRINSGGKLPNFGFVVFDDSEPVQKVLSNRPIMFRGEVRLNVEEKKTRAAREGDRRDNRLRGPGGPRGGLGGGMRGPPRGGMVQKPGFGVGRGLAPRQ
Method: RNA Bind-n-Seq
Form: RNA
Matrix: in vitro
Concentration: 200 nM
Notes: whole 134-nt RNA, ends assumed
Together with: 150 mM LiCl
Baseline: input library
Direction: higher = stronger binding
Library: 7-deaza-guanosine replaces G
Constant ends, left off below: GGGAGUUCUACAGUCCGACGAUC … UGGAAUUCUCGGGUGUCAAGG
| Oligonucleotide | log2 enrichment |
| --- | --- |
| CUCAAGUCCUGUGCUACACAUCGUAUGUACCGAAUCGGCCCGGCCCGGCCCGGAAAGUAUUAUGUUACGCCGUUCGGAUCUGCACUUCCA | 0.0803 |
| UAACUUUAGAGGAGGAUCUGAUGGAUAUGGCAGUGGACGUGGAUUUGGGGAUGGCCAUAAUGGGUAUGGAGGAGGACCUGGAGGUGGCAA | -0.294 |
| UGGCCCUGGUGGCUUGCGGGGAGGAAGAGGUGGCCUCAUGGAUCGUGGUGGUCCCGGUGGAAUGUUCAGAGGUGGCCGUGGUGGAGACAG | 0.545 |
| CAAGUCCUGUGCUACACAUCGUAUGUACCGAAUCGGGUUUGGGUUUGGUUUGGGGAAAGUAUUAUGUUACGCCGUUCGGAUCUGCACUUC | -0.427 |
| GUCCUGUGCUACACAUCGUAUGUACCGAAUCGGUUUUUGGAAAAAAAGGUUUUUUUGGAAAGUAUUAUGUUACGCCGUUCGGAUCUGCAC | -2.52 |
| UGGCUGCAGGCGCACCCCGGCAGGAUUUUGCCUCCGCUGUCGCCCCCGCAGCACCGCUACUCGGAGGGCGAGCGGACCUCCCUGGAGAAG | -1.52 |
| UUGGCUCGAGAGAUUGAAUCAAGCCCCCAGUACCGCCUACGGAUCGCCAUGGAGAACGACGAUGGGCGCACUGAAGAGGAGAAGCACAGU | -0.614 |
| GCAGGAAGUAAAAACAAAUGGAAAUGCUUCGAAAAGUGGCAGGGGUGGGGGUUGCUAAGGAAAGGGUGGGAUGGGAGUGGGUAAAGAGUU | 0.0955 |

Sample 2
Target: RNA binding protein fox-1 homolog 2, RRM domain, GST-SBP tag (RBFOX2, Homo sapiens, UniProt O43251-10, residues 100-194)
Method: RNA Bind-n-Seq
Form: RNA
Matrix: in vitro
Concentration: 365 nM
Notes: natural RNA segment, single round, ends assumed
Baseline: no-protein control
Direction: higher = stronger binding
Constant ends, left off below: GGGAGUUCUACAGUCCGACGAUC … UGGAAUUCUCGGGUGCCAA
Construct (chain): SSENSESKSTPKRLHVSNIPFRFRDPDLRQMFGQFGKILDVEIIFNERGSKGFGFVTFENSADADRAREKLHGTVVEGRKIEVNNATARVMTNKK
| Oligonucleotide | RBNS enrichment (R) |
| --- | --- |
| GUAUUUAUAAGUAUUUUCUUAAGGUUUGUGAAGAGUAUUUGCAUUGUGUCUUCAUUUUAAUGUGUUUGCAAUCGCUCCGCUCCAGGAAGAACGGAAAUGCUGUCUUGUGA | 0.661 |
| UCCCAGCACUUGGGAGGCAGAGGCAGGUGAAUUUCUAAGUUCAAGGCCAGCUUGGUCUAUAGAGUGAGUUCCAGGACAGCCAGGACUACACAGAGAAACCCUGUCUCAAA | 0.323 |
| UUUUAGCAUGUGCUUUUAUAAAAAGUGGUAGCUACAGAUGAUAUAGCAAUCUACCUUAUAUAGAGCCUUCAGAAACUGUGAGUGGAAAUGAAUGCGCAGCGUAUGACUGU | 1.13 |
| AUGUGUGGUGUUGGCAGUCUAAUUUGCUUCUGUUAAAUGUUGUAGAACCUUUUUCACUAGGAAAUAAGAUUCAUUUCUUUCGGCAGUAGAUGUAGAUUCAUCUUUUAACG | 0.517 |
| GUGCACCCAGCCUUUGAACAGAGCCUAGGGUCUGUAUGCCAUGACACUGGAAGUCAUAGAAAUUUCCCUGGUCAUGCUUUGUUUGAACUGUCACUGAAUGAACCUUAUCG | 1.56 |
| CACAGUUAUGUUUCCAUUGUAAUUUCUAGGUUCCUCACAAAAAUCUAUUUCAGUGCUGUAGCUGUUAGUUUUAAGUGAGUGCUAAAGUUCUUUUAAAAGUACACAGAAUU | 0.717 |
| CUCUCCUCAUGUGCUUAUACCCUGUUCCAUGAAAAUAAAUGAGACCAUGAUUUUCCUUCAUGAUGUACCAUGUUUAACUUUCAUGUAUUAUUCUGCAAACUUGGUAGGCU | 0.57 |
| GGCACCACACUACAUCCCCAUGCCCCUGUGGAAGUCUGUUACUGCAGCACUGUGCCUGCCAGAGUUCCCACAGCACCCGAGGGAGAAGGUGAUGGCUGUCUCUCUCUAGU | 0.797 |

Sample 3
SMILES: CC(C)CC(=O)N1CCc2nc(-c3ccc(Br)cc3)nc(N(C)Cc3ccccc3)c2C1
Method: competition with immobilised ligand
Concentration: 0.1 µM
| target | assay | remaining binding [%] |
| --- | --- | --- |
| PNCK (Homo sapiens, UniProt Q6P2M8) | cell-free assay | 100 |
| KIT (Homo sapiens, UniProt P10721, L576P) | cell-free assay | 94 |
| GAK (Homo sapiens, UniProt O14976) | cell-free assay | 100 |
| NEK4 (Homo sapiens, UniProt P51957) | cell-free assay | 100 |
| CSNK1E (Homo sapiens, UniProt P49674) | cell-free assay | 100 |
| Non-receptor tyrosine-protein kinase TYK2, JH2 (TYK2, Homo sapiens, UniProt P29597) | cell-free assay | 100 |
| CAMK1G (Homo sapiens, UniProt Q96NX5) | cell-free assay | 100 |
| STK38 (Homo sapiens, UniProt Q15208) | cell-free assay | 100 |
| MYLK (Homo sapiens, UniProt Q15746) | cell-free assay | 86 |
| FER (Homo sapiens, UniProt P16591) | cell-free assay | 100 |
| MAPKAPK2 (Homo sapiens, UniProt P49137) | cell-free assay | 92 |
| CAMK2D (Homo sapiens, UniProt Q13557) | cell-free assay | 100 |
| Tyrosine-protein kinase ABL1, phosphorylated (ABL1, Homo sapiens, UniProt P00519, E255K) | binding | 100 |
| ULK1 (Homo sapiens, UniProt O75385) | cell-free assay | 90 |
| IRAK3 (Homo sapiens, UniProt Q9Y616) | cell-free assay | 100 |

Sample 4
Structure (SMILES): CC(C)c1nn(-c2c(Cl)cccc2Cl)c2nc(Cc3ccc(OCCO)cc3)[nH]c(=O)c12
Read-out: enzyme activity
Action: inhibitor
Concentration: 0.5 µM
Baseline: control
| target | remaining activity |
| --- | --- |
| PKN2 (Homo sapiens, UniProt Q16513) | 97.5% |
| DYRK4 (Homo sapiens, UniProt Q9NR20) | 96.7% |
| BRSK1 (Homo sapiens, UniProt Q8TDC3) | 91.3% |
| PRKD1 (Homo sapiens, UniProt Q15139) | 103% |
| CAMK1G (Homo sapiens, UniProt Q96NX5) | 100% |
| NTRK3 (Homo sapiens, UniProt Q16288) | 90.5% |
| ROCK2 (Homo sapiens, UniProt O75116) | 92.5% |
| CDK7 (Homo sapiens, UniProt P50613) | 60.3% |
| DMPK (Homo sapiens, UniProt Q09013) | 99.3% |
| Aurora kinase A (AURKA, Homo sapiens, UniProt O14965) | 107% |
| CSNK2A2 (Homo sapiens, UniProt P19784) | 92.2% |
| MAPK10 (Homo sapiens, UniProt P53779) | 109% |

Some of these lines once more (sample 3):
| target | assay | remaining binding [%] |
| --- | --- | --- |
| FER (Homo sapiens, UniProt P16591) | cell-free assay | 100 |
| ULK1 (Homo sapiens, UniProt O75385) | cell-free assay | 90 |
| CAMK2D (Homo sapiens, UniProt Q13557) | cell-free assay | 100 |
| Non-receptor tyrosine-protein kinase TYK2, JH2 (TYK2, Homo sapiens, UniProt P29597) | cell-free assay | 100 |
| CSNK1E (Homo sapiens, UniProt P49674) | cell-free assay | 100 |
| MYLK (Homo sapiens, UniProt Q15746) | cell-free assay | 86 |
| GAK (Homo sapiens, UniProt O14976) | cell-free assay | 100 |
